{"data": "Measured values collected from several papers", "note": "Each numbered part is a random draw from the data of one study; scales do not carry over between parts."}
{"data": "Block 1", "target": "Ras GTPase-activating protein-binding protein 1, RRM domain (G3BP1, Homo sapiens, UniProt Q13283)", "method": "RNA Bind-n-Seq", "molecule type": "RNA", "medium": "in vitro", "concentration": "1 µM", "setting": "whole 134-nt RNA, ends assumed", "together with": "150 mM KCl", "baseline": "input library", "reading": "higher = stronger binding", "constant ends, left off below": "GGGAGUUCUACAGUCCGACGAUC … UGGAAUUCUCGGGUGUCAAGG", "sequence of UniProt Q13283 (whole entry, looked up)": "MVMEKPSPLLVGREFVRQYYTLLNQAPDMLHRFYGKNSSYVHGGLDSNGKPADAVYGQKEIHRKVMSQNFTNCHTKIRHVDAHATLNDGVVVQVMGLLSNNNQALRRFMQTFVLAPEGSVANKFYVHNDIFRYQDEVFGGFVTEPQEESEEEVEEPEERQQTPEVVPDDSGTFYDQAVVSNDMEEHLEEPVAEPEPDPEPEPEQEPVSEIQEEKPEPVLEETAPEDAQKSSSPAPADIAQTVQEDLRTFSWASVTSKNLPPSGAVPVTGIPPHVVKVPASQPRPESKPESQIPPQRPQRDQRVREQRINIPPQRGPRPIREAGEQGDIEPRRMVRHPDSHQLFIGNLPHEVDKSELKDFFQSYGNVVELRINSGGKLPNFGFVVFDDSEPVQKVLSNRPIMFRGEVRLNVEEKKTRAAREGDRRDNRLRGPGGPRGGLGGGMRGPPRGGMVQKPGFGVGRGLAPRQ"}
{"Sequence": "AAGUCCUGUGCUACACAUCGUAUGUACCGAAUCGGAAAAGGGAAAAGGAAAAGGGGAAAGUAUUAUGUUACGCCGUUCGGAUCUGCACUU", "log2 enrichment": -0.213}
{"Sequence": "CUGUGCUACACAUCGUAUGUACCGAAUCGGCCCCCCCGGGGCCCCCCCGGGCCCCCCCGGGGAAAGUAUUAUGUUACGCCGUUCGGAUCU", "log2 enrichment": -0.592}
{"Sequence": "UCCUCAAGUCCUGUGCUACACAUCGUAUGUACCGAAUCGGCGGGCGGCGGGGAAAGUAUUAUGUUACGCCGUUCGGAUCUGCACUUCCAG", "log2 enrichment": -0.153}
{"Sequence": "UGGCCCUGGUGGCAUGCGGGGAGGAAGAGGUGGCCUCAUGGAUCGUGGUGGUCCCGGUGGAAUGUUCAGAGGUGGCCGUGGUGGAGACAC", "log2 enrichment": 1.44}
{"Sequence": "AUGGACUUGCACAUGAUGAACUGUGAACUUCUAGCCACAUGUAGUGCCCUUGGGUACUUGGAGGGAGACACUUACCAUAAGGAACCAGAU", "log2 enrichment": -0.176}
{"Sequence": "ACCAUGCAGGUGGGCAUCUUUGGGGAGUGGGGCAAGGGGGGGAUAGGGAGGGGGGUAACACUUUGGGAACAGGUGGUCCCAGGUCGUUUC", "log2 enrichment": -0.364}
{"Sequence": "UCAAGUCCUGUGCUACACAUCGUAUGUACCGAAUCGGGCCGGGGCCGGGGCCGGGAAAGUAUUAUGUUACGCCGUUCGGAUCUGCACUUC", "log2 enrichment": -1.46}
{"Sequence": "GCAGGAAGUAAAGACAAAUGGAAAUGCUUCGGAUAGUGGCAGGGGUGGGGGUUGCUAAGGAAAGGGUGGGAUGGGAGUGGGUAAAGAGUU", "log2 enrichment": 1.78}
{"Sequence": "AGUCCUGUGCUACACAUCGUAUGUACCGAAUCGGGGAGGGGAAAAAAAGGGGAGGGGAAAGUAUUAUGUUACGCCGUUCGGAUCUGCACU", "log2 enrichment": 1.06}
{"data": "Block 2", "target": "Prothrombin, mature alpha-thrombin (F2, Homo sapiens, UniProt P00734)", "method": "aptamer microarray, sandwich", "molecule type": "DNA with 2'F-ANA", "medium": "in vitro", "concentration": "200 nM", "setting": "whole 15-mer aptamer, many near background", "together with": "Cy3 exosite-II aptamer, 400 nM", "reading": "higher = stronger binding", "sequence": "GGTTGGTGTGGTTGG"}
{"Modification": "2'F-ANA at 1 2 5 10 11 12 15", "mean fluorescence intensity [a.u.]": 65.3}
{"Modification": "2'F-ANA at 1 3 10 12 13", "mean fluorescence intensity [a.u.]": 128}
{"Modification": "2'F-ANA at 1 2 5 9 12", "mean fluorescence intensity [a.u.]": 115}
{"Modification": "2'F-ANA at 1 2 4 8 9 14 15", "mean fluorescence intensity [a.u.]": 48.6}
{"Modification": "2'F-ANA at 1 4 5 7 9 12 14", "mean fluorescence intensity [a.u.]": 44}
{"Modification": "2'F-ANA at 2 3 4 6 7 8 10 11 12 13 14 15", "mean fluorescence intensity [a.u.]": 135}
{"Modification": "2'F-ANA at 1 8 10 11 13", "mean fluorescence intensity [a.u.]": 51}
{"data": "Block 3", "target": "Histone acetyltransferase KAT6A, both winged helices, GST fusion (KAT6A, Homo sapiens, UniProt Q92794, residues 1-181)", "method": "protein binding microarray", "molecule type": "double-stranded DNA, one strand shown", "medium": "in vitro", "concentration": "not given", "setting": "8-mer, flanks averaged, mean of 2 arrays, mostly near background", "baseline": "not given", "reading": "higher = stronger binding", "Target sequence (chain)": "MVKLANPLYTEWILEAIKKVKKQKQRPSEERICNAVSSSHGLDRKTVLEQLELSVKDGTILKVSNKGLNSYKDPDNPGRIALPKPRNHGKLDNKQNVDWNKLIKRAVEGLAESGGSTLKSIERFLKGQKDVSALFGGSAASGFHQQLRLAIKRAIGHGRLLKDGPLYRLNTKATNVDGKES"}
{"Sequence": "GACGAAGC", "E-score": 0.0206}
{"Sequence": "CCCCACCC", "E-score": -0.0955}
{"Sequence": "CTCTTAGA", "E-score": -0.181}
{"Sequence": "ATCGTAGA", "E-score": -0.0533}
{"Sequence": "CGACTGGC", "E-score": -0.0228}
{"Sequence": "GGTGGGAC", "E-score": -0.185}
{"Sequence": "CCCATGTA", "E-score": 0.0291}
{"Sequence": "GGTCTCTA", "E-score": -0.0239}
{"Sequence": "AGGGGACG", "E-score": -0.132}
{"data": "Other studies, line by line"}
{"Substance": "PhoQ, residues 284 288 289 292 302 303 SSYNSA", "target": "PhoP, residues 12 14 15 18 19 MHTVL (Escherichia coli, UniProt P23836)", "assay": "Sort-seq, measured: YFP reporter", "system": "E. coli", "conditions": "PhoQ-PhoP variant library, together with: 10 µM Mg2+", "how to read": "baseline: high Mg2+ state, higher = stronger signaling", "quantity": "fold induction", "result": 20.7}
{"note": "Some of these lines once more (other studies, line by line):"}
{"Substance": "PhoQ, residues 284 288 289 292 302 303 SSYNSA", "target": "PhoP, residues 12 14 15 18 19 MHTVL (Escherichia coli, UniProt P23836)", "assay": "Sort-seq, measured: YFP reporter", "system": "E. coli", "conditions": "PhoQ-PhoP variant library, together with: 10 µM Mg2+", "how to read": "baseline: high Mg2+ state, higher = stronger signaling", "quantity": "fold induction", "result": 20.7}
